Measurements gathered from unrelated publications.
Protocols differ between the studies behind these lines. Numbers after ± are the reported error.
ache: Acetylcholinesterase (ache, Electrophorus electricus, UniProt O42275)
Sequence of UniProt O42275 (whole entry, looked up): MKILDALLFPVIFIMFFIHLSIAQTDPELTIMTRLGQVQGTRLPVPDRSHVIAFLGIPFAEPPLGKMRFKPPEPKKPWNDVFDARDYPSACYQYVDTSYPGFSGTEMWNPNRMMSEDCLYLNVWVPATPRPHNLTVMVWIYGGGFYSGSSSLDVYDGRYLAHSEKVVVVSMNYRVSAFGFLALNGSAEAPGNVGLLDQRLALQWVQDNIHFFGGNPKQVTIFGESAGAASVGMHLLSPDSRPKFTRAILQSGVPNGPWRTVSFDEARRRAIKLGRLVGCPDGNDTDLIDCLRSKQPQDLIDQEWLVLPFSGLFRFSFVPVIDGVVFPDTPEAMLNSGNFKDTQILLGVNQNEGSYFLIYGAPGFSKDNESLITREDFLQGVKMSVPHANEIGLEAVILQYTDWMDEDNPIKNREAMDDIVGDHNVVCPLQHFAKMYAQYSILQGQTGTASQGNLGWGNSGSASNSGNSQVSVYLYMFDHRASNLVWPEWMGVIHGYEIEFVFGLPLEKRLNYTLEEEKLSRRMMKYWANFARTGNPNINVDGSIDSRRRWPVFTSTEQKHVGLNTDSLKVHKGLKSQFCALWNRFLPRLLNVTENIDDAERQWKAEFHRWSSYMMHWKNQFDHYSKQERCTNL
ampC: Beta-lactamase (ampC, Escherichia coli K-12, UniProt P00811)
Sequence of UniProt P00811 (whole entry, looked up): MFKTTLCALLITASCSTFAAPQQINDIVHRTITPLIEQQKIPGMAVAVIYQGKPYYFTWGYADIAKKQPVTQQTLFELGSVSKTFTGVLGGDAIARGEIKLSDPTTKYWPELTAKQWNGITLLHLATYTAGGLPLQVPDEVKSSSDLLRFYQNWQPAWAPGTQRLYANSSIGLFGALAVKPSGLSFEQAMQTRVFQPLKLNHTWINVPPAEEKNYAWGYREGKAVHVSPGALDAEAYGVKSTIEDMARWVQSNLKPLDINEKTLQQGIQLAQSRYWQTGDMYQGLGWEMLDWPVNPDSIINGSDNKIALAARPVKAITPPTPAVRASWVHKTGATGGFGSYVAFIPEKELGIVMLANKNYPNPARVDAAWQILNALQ
Oprk1: Kappa-type opioid receptor (Oprk1, Rattus norvegicus, UniProt P34975)
Sequence of UniProt P34975 (whole entry, looked up): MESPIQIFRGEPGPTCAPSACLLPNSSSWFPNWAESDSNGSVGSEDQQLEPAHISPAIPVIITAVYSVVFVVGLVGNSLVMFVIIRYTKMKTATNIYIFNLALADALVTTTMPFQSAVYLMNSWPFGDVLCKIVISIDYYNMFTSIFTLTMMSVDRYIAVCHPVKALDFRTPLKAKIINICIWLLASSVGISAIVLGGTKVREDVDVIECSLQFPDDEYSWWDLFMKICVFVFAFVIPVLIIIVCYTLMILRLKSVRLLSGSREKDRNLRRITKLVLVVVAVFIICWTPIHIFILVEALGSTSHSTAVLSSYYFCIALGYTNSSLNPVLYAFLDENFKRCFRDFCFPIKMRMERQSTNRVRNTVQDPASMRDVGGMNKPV
Sequence of UniProt O88457 (whole entry, looked up): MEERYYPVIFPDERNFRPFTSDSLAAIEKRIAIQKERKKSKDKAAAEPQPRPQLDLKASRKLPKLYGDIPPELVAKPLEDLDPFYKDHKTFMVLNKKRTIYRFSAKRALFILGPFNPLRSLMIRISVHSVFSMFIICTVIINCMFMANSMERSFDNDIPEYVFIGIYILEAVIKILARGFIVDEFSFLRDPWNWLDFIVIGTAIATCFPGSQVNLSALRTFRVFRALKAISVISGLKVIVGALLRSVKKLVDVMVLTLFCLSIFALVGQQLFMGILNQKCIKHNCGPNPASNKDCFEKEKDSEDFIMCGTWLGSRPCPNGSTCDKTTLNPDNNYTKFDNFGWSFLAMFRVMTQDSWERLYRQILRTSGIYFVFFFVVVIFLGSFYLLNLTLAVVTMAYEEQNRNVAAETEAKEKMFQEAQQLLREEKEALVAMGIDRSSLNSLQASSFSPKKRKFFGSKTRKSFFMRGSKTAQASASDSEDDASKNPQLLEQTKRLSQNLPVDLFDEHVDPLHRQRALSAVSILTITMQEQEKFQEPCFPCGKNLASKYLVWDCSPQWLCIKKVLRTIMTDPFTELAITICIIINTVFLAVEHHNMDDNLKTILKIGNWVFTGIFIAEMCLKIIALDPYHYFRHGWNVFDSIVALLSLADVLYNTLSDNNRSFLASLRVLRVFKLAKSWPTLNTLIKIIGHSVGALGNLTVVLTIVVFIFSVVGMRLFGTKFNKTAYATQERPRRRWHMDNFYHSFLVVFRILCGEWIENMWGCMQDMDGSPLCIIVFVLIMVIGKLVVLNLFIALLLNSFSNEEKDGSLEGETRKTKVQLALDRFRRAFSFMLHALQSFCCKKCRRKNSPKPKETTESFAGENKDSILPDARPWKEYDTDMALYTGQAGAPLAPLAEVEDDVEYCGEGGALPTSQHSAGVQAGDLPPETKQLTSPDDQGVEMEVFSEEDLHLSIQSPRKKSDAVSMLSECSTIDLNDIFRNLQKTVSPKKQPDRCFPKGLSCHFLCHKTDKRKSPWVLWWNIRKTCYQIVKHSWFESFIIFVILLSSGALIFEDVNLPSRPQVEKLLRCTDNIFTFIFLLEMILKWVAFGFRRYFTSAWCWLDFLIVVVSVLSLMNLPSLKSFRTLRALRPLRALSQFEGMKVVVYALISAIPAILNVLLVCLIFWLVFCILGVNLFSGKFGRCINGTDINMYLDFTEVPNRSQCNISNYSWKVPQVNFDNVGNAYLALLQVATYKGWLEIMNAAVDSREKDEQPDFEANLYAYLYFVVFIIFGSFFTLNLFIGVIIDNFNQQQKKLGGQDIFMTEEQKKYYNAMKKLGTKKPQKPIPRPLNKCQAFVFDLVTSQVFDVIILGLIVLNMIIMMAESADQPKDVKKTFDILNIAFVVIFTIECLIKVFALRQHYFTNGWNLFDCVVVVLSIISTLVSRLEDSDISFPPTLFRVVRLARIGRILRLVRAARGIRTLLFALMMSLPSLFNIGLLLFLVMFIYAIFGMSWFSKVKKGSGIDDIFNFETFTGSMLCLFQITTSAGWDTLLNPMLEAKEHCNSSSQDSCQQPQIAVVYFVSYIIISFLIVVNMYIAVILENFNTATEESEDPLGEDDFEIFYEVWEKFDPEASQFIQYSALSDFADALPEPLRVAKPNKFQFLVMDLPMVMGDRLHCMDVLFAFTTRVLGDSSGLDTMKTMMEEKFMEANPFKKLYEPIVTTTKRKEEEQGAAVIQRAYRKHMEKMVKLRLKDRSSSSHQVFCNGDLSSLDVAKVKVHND
Sequence of UniProt P20309 (whole entry, unmodified, looked up): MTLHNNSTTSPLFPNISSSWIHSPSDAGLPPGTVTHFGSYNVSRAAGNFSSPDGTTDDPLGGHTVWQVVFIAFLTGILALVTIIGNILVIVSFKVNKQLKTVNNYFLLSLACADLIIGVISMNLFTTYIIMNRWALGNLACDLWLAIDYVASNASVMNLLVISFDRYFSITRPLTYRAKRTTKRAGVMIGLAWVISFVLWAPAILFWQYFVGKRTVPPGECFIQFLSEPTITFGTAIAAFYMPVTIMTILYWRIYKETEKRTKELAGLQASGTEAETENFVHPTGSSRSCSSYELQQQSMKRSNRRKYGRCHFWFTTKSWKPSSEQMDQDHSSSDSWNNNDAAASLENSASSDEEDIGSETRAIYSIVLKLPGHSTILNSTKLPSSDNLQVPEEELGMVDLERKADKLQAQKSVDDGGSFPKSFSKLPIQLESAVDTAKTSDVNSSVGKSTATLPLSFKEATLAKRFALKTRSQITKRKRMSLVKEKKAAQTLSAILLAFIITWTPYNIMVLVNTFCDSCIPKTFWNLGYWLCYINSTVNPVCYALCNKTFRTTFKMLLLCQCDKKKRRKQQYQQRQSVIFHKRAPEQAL
Sequence of UniProt O43741 (whole entry, looked up): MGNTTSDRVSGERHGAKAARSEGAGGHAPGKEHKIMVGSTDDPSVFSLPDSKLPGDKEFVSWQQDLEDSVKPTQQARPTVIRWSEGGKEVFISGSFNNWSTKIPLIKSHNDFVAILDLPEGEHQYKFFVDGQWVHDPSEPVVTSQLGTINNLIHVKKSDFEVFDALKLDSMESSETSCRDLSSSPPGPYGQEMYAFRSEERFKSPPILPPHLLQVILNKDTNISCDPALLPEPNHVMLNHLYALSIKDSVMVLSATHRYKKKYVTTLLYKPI
Sequence of UniProt P00691 (whole entry, looked up): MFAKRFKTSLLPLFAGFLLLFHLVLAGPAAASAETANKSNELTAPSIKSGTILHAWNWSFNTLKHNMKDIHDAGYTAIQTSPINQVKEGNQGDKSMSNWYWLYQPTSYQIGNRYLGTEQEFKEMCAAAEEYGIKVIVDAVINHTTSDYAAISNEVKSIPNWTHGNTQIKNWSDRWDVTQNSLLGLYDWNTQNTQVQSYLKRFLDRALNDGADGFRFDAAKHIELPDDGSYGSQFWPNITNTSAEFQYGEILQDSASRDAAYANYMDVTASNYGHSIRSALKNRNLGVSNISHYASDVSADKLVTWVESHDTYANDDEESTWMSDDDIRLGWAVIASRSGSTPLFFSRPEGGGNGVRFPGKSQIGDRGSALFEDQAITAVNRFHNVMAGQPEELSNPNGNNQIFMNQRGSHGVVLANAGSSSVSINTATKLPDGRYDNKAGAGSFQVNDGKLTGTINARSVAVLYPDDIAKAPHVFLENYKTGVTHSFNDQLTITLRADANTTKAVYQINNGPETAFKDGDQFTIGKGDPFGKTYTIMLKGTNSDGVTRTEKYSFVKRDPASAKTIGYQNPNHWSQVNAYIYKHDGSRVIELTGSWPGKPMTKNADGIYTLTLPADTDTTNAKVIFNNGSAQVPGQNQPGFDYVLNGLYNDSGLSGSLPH
Sequence of UniProt P69905 (whole entry, looked up): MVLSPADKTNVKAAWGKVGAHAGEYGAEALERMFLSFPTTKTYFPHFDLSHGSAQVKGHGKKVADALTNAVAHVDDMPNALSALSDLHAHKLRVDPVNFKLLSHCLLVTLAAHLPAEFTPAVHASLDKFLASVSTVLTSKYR

SMILES	target	test	test system	conditions	how to read	endpoint	result
O=C(O)COc1ccc(Cl)cc1	Chloride channel protein (Torpedo marmorata, UniProt P21564, C212S)	inside-out patch		1 mM, -80 mV		single-channel current amplitude	0.42 pA
COc1cc(C=O)ccc1OCc1cccc(CO)n1	Hemoglobin subunit alpha, with beta chain (HBA1, Homo sapiens, UniProt P69905)	kinetic binding, cation-exchange HPLC		37 °C		koff	2.78e-05 s⁻¹
c1ccc(Nc2c3c(nc4ccccc24)CCCC3)cc1	ache	enzyme activity, inhibitor, Ellman		50 µM		inhibition	12.7%
CCS(=O)(=O)Nc1ccccc1C(=O)O	ampC					ligand efficiency	0.42
CC[C@H](C)[C@H](NC(=O)[C@H](CCCNC(=N)N)NC(=O)[C@H](CO)NC(=O)[C@@H](NC(=O)[C@H](CC(=O)O)NC(=O)[C@H](CC(=O)O)NC(=O)CCCCCNC(=O)c1ccc2c(c1)C(=O)OC21c2ccc(O)cc2Oc2cc(O)ccc21)[C@@H](C)O)C(=O)N[C@@H](CCC(=O)O)C(=O)N[C@@H](CCC(=O)O)C(=O)N[C@H](C(=O)N[C@@H](CC(=O)O)C(=O)O)C(C)C	DnaJ homolog subfamily C member 7 (Homo sapiens, UniProt Q99615)	fluorescence polarization		pH 7.4	relative to: wild-type Hsp90alpha tracer	affinity increase	≥ 2 fold
COC[C@@H](NC(C)=O)C(=O)NCc1ccc(OCc2cccc(OC(F)(F)F)c2)cc1	Sodium channel protein type 9 subunit alpha (Mus musculus, UniProt Q62205)	steady-state fast inactivation, modulator, whole-cell patch clamp	CAD cells	10 µM, 0.1% DMSO		V1/2 of fast inactivation	-76.5 ± 0.6 mV
CCN1CCCC1CNC(=O)c1cc(Br)cc(OC)c1O[11CH3] (stereo not shown)	dopamine D2/D3 receptors	PET, multiple injection	rhesus monkey, brain			koff	0.000267 s⁻¹
CC[C@H](C)[C@H](NC(=O)[C@H](CCC(N)=O)NC(=O)[C@H](CC(C)C)NC(=O)[C@@H](NC(=O)CNC(=O)[C@H](Cc1ccc(O)cc1)NC(=O)[C@H](CC(=O)O)NC(=O)[C@@H](NC(=O)[C@H](CO)NC(=O)CNC(=O)[C@H](CC(=O)O)NC(=O)[C@@H](NC(=O)[C@H](CC(N)=O)NC(=O)[C@H](CCCNC(=N)N)NC(=O)[C@H](CC(N)=O)NC(=O)[C@@H](NC(=O)[C@H](C)NC(=O)[C@H](CCC(N)=O)NC(=O)[C@@H](NC(=O)[C@H](CC(N)=O)NC(=O)[C@H](Cc1ccccc1)NC(=O)[C@H](CC(N)=O)NC(=O)[C@H](CO)NC(=O)[C@H](CCC(=O)O)NC(=O)[C@H](Cc1ccccc1)NC(=O)[C@H](CCCCN)NC(=O)[C@H](C)NC(=O)[C@H](C)NC(=O)[C@H](CO)NC(=O)[C@@H](NC(=O)[C@H](Cc1c[nH]c2ccccc12)NC(=O)[C@H](CC(N)=O)NC(=O)CNC(=O)[C@H](CC(C)C)NC(=O)[C@H](CO)NC(=O)[C@H](Cc1ccc(O)cc1)NC(=O)CNC(=O)[C@H](CCCNC(=N)N)NC(=O)[C@H](Cc1ccc(O)cc1)NC(=O)[C@H](CC(N)=O)NC(=O)[C@@H](N)CC(=O)O)C(C)C)[C@@H](C)O)[C@@H](C)O)[C@@H](C)O)[C@@H](C)O)[C@@H](C)CC)C(=O)O	Periplasmic serine endoprotease DegP (degP, Escherichia coli, UniProt P0C0V0, S236A)	oligomer formation, sedimentation velocity		30 µM, together with: protein 20 µM		30-mers fraction	3%
CS(C)(=O)=Nc1ccc(-c2ccc(-c3nc4cc(O[C@@H]5CO[C@H]6[C@@H]5OC[C@H]6O)[nH]c4cc3F)cc2)cc1	PRKAB2/PRKAA2 (Homo sapiens, UniProt O43741+P54646)	enzyme activity, activator		60 min, 50% above basal activity, together with: ATP 50 µM		EC150	0.221 nM
COc1ccc2cc1Oc1ccc(cc1)C[C@H]1c3cc(c(OC)cc3CC[N+]1(C)Cc1ccc3ccccc3c1)Oc1c(OC)c(OC)cc3c1[C@H](C2)[N+](C)(Cc1ccc2ccccc2c1)CC3 (mixture of isomers)	poly(dG)·poly(dC) 18-bp dsDNA	DNA binding, ethidium bromide displacement	phosphate buffer, 10% DMSO	pH 7.2, 25 °C, dsDNA 10 µM, 10 mM NaCl, together with: ethidium bromide 5 µM		Stern-Volmer constant	6760 M⁻¹
COc1ccccc1-c1nc2sc3c(c2c(=O)o1)CCC3	Genome polyprotein, 3C protease (rhinovirus B14, UniProt P03303)	protease activity, SAMDI-MS				Hill slope	1.08
Cc1ccc(Oc2nc3cc(-c4ccc5c(ccn5C)c4)c(Cl)cc3[nH]2)cc1C(=O)O	PRKAA1/PRKAB1, phosphorylated; with gamma1 (Homo sapiens, UniProt Q13131+Q9Y478)	binding, biolayer interferometry		α1β1γ1 complex		koff	0.0062 ± 0.0012 s⁻¹
Clc1ccc2c(c1)N=C(N1CCNCC1)c1ccccc1N2	CHRM3 (Homo sapiens, UniProt P20309, A239G/Y149C)	calcium signal, agonist, FLIPR			relative to: clozapine N-oxide	Emax	95%
N=C(N)NCCC[C@@H]1NC(=O)[C@@H](NC(=O)[C@H](Cc2ccccc2)NC(=O)CNC(=O)CNC(=O)[C@H](Cc2ccc(O)cc2)NCc2ccccc2)CC(=O)NC[C@@H](C(=O)N[C@@H](CCCNC(=N)N)C(=O)N2CCC[C@H]2C(=O)N[C@@H](CCCCN)C(N)=O)NC(=O)[C@H](CCCNC(=N)N)NC1=O	Oprk1	binding			relative to: zyklophin	relative affinity	0.23
CC(CCC(=O)NC(CCC(=O)Nc1cccnc1)C(=O)O)C1CCC2C3C(O)CC4CC(O)CCC4(C)C3CCC12C (stereo not shown)	SLC10A2 (Homo sapiens, UniProt Q12908)	transport, substrate	ASBT-MDCK cells	unit not given	relative to: taurocholate Jmax	Jmax	0.298
COC(=O)N(C)[C@@H](Cc1ccccc1)C(=O)N[C@@H](Cc1ccccc1)C(=O)N[C@@H](Cc1ccc2ccccc2c1)C(=O)N[C@@H](CCCNC(=N)N)C(=O)N[C@@H](CC(C)C)C(=O)N[C@@H](CCCNC(=N)N)C(=O)N[C@@H](CCCNC(=N)N)C(=O)N[C@H](C)C(=O)N[C@@H](CCCNC(=N)N)C(=O)N1CCC[C@H]1C(=O)N[C@@H](CCCCN)C(N)=O	Oprk1	agonist	CHO cells	10 µM	relative to: dynorphin A(1-13) amide	adenylyl cyclase activity	109 ± 10%
COC(=O)C1C(OC(c2ccc(Cl)cc2)c2ccc(Cl)cc2)CC2CCC1N2C (single isomer, unassigned)	ATP-binding cassette sub-family C member 8 (ABCC8, Cricetus cricetus, UniProt Q09427)	binding, radioligand displacement		inactive if below 75% at 10000 nM, together with: [3H]glyburide		Ki	inactive
CC(C)P(=[Se])(NP(=[Se])(C(C)C)C(C)C)C(C)C	Alpha-amylase (Bacillus subtilis, UniProt P00691)	fluorescence quenching		concentration not given, 304 K		number of binding sites	0.72 ± 0.06
COCCN1COc2c(cc3c4c(c(=O)oc3c2C)CCC4)C1	ache	peripheral site binding		0.24 µM		propidium displacement	0%
OB(O)c1cnn(-c2cc(Cl)ncn2)c1	ampC					ligand efficiency	0.71
CC(C)[C@H]1CC[C@@H](N2CC[C@@](C)(c3cccc(O)c3)[C@@H](C)C2)CC1	OPRK1 (Homo sapiens, UniProt P41145)	agonist				efficacy	0%
CCN(Cc1ccccc1)C(=O)CCc1nc(CN2CCN(C(=O)Cc3ccc(OC)c(OC)c3)CC2)no1	Sodium channel protein type 11 subunit alpha (Scn11a, Rattus norvegicus, UniProt O88457)	sodium current, whole-cell patch clamp	rat DRG neurons	10 µM		inactivation V1/2	-101 mV

A few entries again:
SMILES	target	test	test system	conditions	how to read	endpoint	result
O=C(O)COc1ccc(Cl)cc1	Chloride channel protein (Torpedo marmorata, UniProt P21564, C212S)	inside-out patch		1 mM, -80 mV		single-channel current amplitude	0.42 pA
COc1cc(C=O)ccc1OCc1cccc(CO)n1	Hemoglobin subunit alpha, with beta chain (HBA1, Homo sapiens, UniProt P69905)	kinetic binding, cation-exchange HPLC		37 °C		koff	2.78e-05 s⁻¹
c1ccc(Nc2c3c(nc4ccccc24)CCCC3)cc1	ache	enzyme activity, inhibitor, Ellman		50 µM		inhibition	12.7%
CCS(=O)(=O)Nc1ccccc1C(=O)O	ampC					ligand efficiency	0.42
